Assay results from different studies.
A part holds a random share of what one study measured.
UniProt P08069, sequence (whole entry, looked up): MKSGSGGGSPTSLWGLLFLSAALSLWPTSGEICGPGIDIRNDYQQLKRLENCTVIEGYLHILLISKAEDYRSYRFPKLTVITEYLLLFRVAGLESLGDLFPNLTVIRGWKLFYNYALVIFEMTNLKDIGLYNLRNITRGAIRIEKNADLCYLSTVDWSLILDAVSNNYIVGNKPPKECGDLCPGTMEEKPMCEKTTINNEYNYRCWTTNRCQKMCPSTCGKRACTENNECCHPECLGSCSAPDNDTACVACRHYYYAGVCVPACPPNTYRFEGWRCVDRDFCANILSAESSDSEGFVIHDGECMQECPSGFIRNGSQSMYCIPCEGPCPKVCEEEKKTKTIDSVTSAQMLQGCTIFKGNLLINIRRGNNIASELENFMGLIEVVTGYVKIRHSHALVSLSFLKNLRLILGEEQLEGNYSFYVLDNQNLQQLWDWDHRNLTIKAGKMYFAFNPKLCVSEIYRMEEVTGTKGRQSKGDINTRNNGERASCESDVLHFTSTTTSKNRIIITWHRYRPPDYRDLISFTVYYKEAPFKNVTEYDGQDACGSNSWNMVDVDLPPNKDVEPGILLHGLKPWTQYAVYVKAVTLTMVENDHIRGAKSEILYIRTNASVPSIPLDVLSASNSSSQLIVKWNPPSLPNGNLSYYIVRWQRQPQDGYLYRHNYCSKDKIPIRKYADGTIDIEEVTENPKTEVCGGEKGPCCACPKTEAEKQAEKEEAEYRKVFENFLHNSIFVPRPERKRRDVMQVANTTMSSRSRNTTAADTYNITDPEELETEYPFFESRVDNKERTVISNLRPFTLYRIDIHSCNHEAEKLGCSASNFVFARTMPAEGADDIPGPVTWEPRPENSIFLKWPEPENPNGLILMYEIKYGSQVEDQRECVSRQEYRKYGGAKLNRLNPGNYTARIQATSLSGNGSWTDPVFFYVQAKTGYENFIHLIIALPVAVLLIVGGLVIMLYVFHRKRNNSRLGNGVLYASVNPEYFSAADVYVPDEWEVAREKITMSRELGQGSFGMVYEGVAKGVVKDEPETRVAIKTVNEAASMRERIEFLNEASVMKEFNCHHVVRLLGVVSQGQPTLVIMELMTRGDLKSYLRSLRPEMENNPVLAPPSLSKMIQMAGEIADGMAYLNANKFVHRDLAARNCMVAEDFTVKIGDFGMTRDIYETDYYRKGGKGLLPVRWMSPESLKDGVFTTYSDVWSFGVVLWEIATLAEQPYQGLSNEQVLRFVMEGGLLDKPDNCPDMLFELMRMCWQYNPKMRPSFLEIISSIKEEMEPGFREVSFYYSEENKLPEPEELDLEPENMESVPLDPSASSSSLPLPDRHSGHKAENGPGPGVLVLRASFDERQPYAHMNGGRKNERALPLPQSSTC
UniProt P49336, sequence (whole entry, looked up): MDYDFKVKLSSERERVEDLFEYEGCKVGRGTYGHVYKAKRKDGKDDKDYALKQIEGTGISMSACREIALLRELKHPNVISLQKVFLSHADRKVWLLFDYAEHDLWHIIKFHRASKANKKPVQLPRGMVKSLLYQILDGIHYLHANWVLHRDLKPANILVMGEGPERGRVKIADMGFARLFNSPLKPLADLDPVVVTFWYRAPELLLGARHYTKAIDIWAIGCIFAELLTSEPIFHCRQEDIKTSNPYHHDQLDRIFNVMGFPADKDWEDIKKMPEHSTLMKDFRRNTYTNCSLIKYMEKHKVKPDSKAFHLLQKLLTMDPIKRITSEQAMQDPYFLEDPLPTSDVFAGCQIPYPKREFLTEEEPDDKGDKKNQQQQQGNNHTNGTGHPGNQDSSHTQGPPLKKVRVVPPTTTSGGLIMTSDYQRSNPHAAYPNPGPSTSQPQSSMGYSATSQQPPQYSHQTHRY
UniProt O95747, sequence (whole entry, looked up): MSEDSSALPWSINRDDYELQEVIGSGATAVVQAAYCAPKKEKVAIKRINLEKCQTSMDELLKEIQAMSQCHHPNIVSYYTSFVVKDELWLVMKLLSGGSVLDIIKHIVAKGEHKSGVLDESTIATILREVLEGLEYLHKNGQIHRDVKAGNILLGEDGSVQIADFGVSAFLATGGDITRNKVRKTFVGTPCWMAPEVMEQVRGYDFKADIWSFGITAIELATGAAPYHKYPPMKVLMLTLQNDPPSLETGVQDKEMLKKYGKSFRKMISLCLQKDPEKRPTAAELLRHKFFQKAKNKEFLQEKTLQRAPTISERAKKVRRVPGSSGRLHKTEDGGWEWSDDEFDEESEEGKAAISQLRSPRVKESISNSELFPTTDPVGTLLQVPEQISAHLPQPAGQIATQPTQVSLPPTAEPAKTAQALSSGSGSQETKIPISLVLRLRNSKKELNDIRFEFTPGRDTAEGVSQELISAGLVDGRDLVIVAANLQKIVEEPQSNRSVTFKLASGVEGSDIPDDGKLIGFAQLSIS
UniProt P36897, sequence (whole entry, unmodified, looked up): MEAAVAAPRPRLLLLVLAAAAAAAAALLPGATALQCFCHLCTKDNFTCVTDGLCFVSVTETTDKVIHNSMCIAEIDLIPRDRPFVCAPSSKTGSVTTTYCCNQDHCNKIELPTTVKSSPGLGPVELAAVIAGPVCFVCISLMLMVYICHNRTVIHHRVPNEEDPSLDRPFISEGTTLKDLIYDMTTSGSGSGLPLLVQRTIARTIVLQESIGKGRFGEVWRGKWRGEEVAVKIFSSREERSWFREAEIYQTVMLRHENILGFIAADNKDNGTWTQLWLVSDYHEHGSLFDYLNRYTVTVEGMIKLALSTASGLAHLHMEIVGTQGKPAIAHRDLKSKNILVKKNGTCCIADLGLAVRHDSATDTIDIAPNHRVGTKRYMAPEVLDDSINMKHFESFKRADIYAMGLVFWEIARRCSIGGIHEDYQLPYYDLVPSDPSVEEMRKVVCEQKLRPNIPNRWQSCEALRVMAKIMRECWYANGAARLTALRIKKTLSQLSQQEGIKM
UniProt Q8IW41, sequence (whole entry, looked up): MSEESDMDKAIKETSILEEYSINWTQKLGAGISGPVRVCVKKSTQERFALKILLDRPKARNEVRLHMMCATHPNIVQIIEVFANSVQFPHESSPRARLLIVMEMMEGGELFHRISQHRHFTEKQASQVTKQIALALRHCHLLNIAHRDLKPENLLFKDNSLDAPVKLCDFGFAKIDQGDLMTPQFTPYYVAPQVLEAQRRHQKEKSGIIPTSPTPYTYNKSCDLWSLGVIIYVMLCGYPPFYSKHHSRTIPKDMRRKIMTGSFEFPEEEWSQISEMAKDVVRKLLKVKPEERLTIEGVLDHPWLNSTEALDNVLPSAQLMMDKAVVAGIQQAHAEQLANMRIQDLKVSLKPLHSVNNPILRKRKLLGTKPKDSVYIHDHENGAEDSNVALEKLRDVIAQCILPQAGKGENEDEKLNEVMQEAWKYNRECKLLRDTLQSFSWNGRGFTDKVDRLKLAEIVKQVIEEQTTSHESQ

Block 1
Structure (SMILES): O=C(NCCCC1CCCCC1)c1ccc(CNC(=O)c2cnn(-c3ccccc3)c2C(F)(F)F)cc1
Effect on: cell-free assay
Method: competition with immobilised ligand
Concentration: 0.1 µM
| target | remaining binding |
| --- | --- |
| MAPKAPK5 (Homo sapiens, UniProt Q8IW41) | 100% |
| CDK8 (Homo sapiens, UniProt P49336) | 97% |
| NEK1 (Homo sapiens, UniProt Q96PY6) | 58% |
| OXSR1 (Homo sapiens, UniProt O95747) | 91% |
| IGF1R (Homo sapiens, UniProt P08069) | 100% |
| SLK (Homo sapiens, UniProt Q9H2G2) | 100% |

Block 2
SMILES: COc1cc(/C=C(\C#N)C(=O)c2ccc(O)c(O)c2)cc(I)c1O
Action: inhibitor
Concentration: 5 µM
| target | assay | test system | conditions | how to read | log2 fold change |
| --- | --- | --- | --- | --- | --- |
| FLT3 (Homo sapiens, UniProt P36888) | cell-based kinome screen | human cells |  | reference: vehicle | 0.789 |
| FLT4 (Homo sapiens, UniProt P35916, H1035R) | cell-based translocation | human cells | hereditary lymphedema type 1A variant | reference: vehicle | 0.568 |
| kinase–CDC37 interaction | kinase–CDC37 binding | human cells | oncogenic FCHSD1-BRAF fusion | reference: vehicle | -0.015 |
| EGFR (Homo sapiens, UniProt P00533, L858R/T790M) |  | human cells |  | reference: vehicle | -0.083 |
| ERBB4 (Homo sapiens, UniProt Q15303, E836K) | kinase–CDC37 interaction |  | ERBB4 E836K oncogenic mutant | reference: vehicle control | -0.075 |
| TGFBR1 (Homo sapiens, UniProt P36897, D400G) | kinase activity |  | cell-based kinome screen | reference: vehicle | 0.067 |
| ABL1 G2A human | kinase-CDC37 interaction | human cells |  | reference: vehicle | 0.136 |

Block 3
Organism: Sarcocystis neurona
Effect on: parasite growth
Concentration: 10 µM
Time: 96 h
Setting: first screen
Reference: untreated
| Compound | log2 fold change |
| --- | --- |
| COc1cccc2c1C(=O)c1c(O)c3c(c(O)c1C2=O)C[C@@](O)(C(=O)CO)C[C@@H]3O[C@H]1C[C@H](N)[C@@H](O)[C@H](C)O1 | -3.34 |
| CCCCCCCCCCC[C@@H](C[C@@H]1OC(=O)[C@H]1CCCCCC)OC(=O)[C@H](CC(C)C)NC=O | -0.49 |
| CC(=O)OCC(=O)[C@@]1(O)CC[C@H]2[C@@H]3CCC4=CC(=O)C=C[C@]4(C)[C@H]3[C@@H](O)C[C@@]21C | 0.21 |
| O=C1CCc2ccc(OCCCCN3CCN(c4cccc(Cl)c4Cl)CC3)cc2N1 | -0.4 |
| CCOC(=O)N1CCC(=C2c3ccc(Cl)cc3CCc3cccnc32)CC1 | -0.34 |
| c1ccc2[nH]c(-c3cscn3)nc2c1 | 1.88 |

Block 4
Target: 3-phosphoinositide-dependent protein kinase 1 (PDPK1, Homo sapiens, UniProt O15530)
UniProt O15530, sequence (whole entry, looked up): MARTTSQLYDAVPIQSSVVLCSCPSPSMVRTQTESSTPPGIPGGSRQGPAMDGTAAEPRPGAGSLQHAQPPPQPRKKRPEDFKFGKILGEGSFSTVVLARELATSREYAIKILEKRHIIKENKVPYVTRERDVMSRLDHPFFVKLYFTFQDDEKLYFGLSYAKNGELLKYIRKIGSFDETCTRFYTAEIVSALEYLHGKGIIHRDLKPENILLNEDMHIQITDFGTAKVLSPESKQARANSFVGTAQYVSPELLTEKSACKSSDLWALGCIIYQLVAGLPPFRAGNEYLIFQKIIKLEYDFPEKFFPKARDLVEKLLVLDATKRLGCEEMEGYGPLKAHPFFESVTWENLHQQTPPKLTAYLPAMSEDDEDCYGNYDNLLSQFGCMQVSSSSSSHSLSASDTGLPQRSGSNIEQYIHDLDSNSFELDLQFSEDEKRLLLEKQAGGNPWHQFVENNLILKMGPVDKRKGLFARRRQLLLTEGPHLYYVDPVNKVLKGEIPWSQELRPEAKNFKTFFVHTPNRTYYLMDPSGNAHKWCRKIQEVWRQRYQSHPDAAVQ
Effect on: enzyme activity
Action: inhibitor
Concentration: 0.5 µM
Reference: control
| SMILES | remaining activity [%] |
| --- | --- |
| Cc1cccc(-c2[nH]c(C(C)(C)C)nc2-c2ccc3c(c2)OCO3)n1 | 89.8 |
| CN(C)c1ccc(C=C2C(=O)Nc3ccccc32)cc1 | 82.3 |
| Nc1ncnc2n[nH]c(Nc3ccc(F)cc3)c12 | 102 |
| CO[C@H]1C[C@@H]2CC[C@@H](C)[C@@](O)(O2)C(=O)C(=O)N2CCCC[C@H]2C(=O)O[C@H]([C@H](C)C[C@@H]2CC[C@@H](O)[C@H](OC)C2)CC(=O)[C@H](C)/C=C(\C)[C@@H](O)[C@@H](OC)C(=O)[C@H](C)C[C@H](C)/C=C/C=C/C=C/1C | 92.6 |
| CCOC(=O)c1c(C)[nH]c(/C=C2\C(=O)Nc3ccccc32)c1C | 92.5 |
| O=S(=O)(c1cccc2cnccc12)N1CCCNCC1 | 91.3 |
| CNC(=O)c1cc(Oc2ccc(NC(=O)Nc3ccc(Cl)c(C(F)(F)F)c3)cc2)ccn1 | 95.8 |
| NCCNc1ncc(C(N)=O)c(Nc2cccc(C(F)(F)F)c2)n1 | 82.4 |
| COc1ccc(OC)c2c(=S)c3ccccc3[nH]c12 | 94.9 |
| O=c1c2ccccc2[nH]c(=S)n1CCN1CCC(=C(c2ccc(F)cc2)c2ccc(F)cc2)CC1 | 99.2 |

Excerpt of the above (block 3):
| Compound | log2 fold change |
| --- | --- |
| COc1cccc2c1C(=O)c1c(O)c3c(c(O)c1C2=O)C[C@@](O)(C(=O)CO)C[C@@H]3O[C@H]1C[C@H](N)[C@@H](O)[C@H](C)O1 | -3.34 |
| CCCCCCCCCCC[C@@H](C[C@@H]1OC(=O)[C@H]1CCCCCC)OC(=O)[C@H](CC(C)C)NC=O | -0.49 |
| CC(=O)OCC(=O)[C@@]1(O)CC[C@H]2[C@@H]3CCC4=CC(=O)C=C[C@]4(C)[C@H]3[C@@H](O)C[C@@]21C | 0.21 |
| O=C1CCc2ccc(OCCCCN3CCN(c4cccc(Cl)c4Cl)CC3)cc2N1 | -0.4 |
